Measured values gathered from unrelated publications.
Each numbered part is a random draw from the data of one study; scales do not carry over between parts.

Study 1
Target: Interferon regulatory factor 5, full length, phosphomimetic (IRF5, Homo sapiens, UniProt Q13568-2, residues 1-514, S451D/S453D/S456D/S462D)
Technique: protein-binding microarray
Molecule type: double-stranded DNA, one strand shown
Matrix: in vitro
Concentration: 940 nM top
Notes: 60-bp whole probe
Added: salmon DNA 0.4 mg/ml
Reference: random background probes
Direction: higher = stronger binding
All sequences stand within: GCCTAGCAC … GTCTTGATTCGCTTGACGCTGCTG
Strand	fitted relative affinity [z-score]
TTAGGTATCGGTTTCGTTTAGTGCTAG	11.6
TCAGCTCTCCGGGGTCTGACTGTGCTA	-0.096
CTAGGTCTCCTTTTCCTTTAGTGCTAG	0.677
TTAGGTATCGGTATCGGTTGGTGCTAG	10.6
TCATCTTTCGTTACTTCACTGTGCTAG	2.93
TTAGATTTCGGGTTTCGATGAGTGCTA	4.52
CTCCTTCTCTAACCTCTCTAAGTGCTA	1.27
GACGGTTTCGACTATCGTGACGTGCTA	8.05
CCCTGAGGAATCCTGCAGCCGTGCTAG	-0.366
GACTATCTCAGTTTCGAGACGTGCTAG	4.16
GACGATTTGGGGTTTCGAGACGTGCTA	2.41
TTAGAACTGAGTATCGGTTAGTGCTAG	4.14
TCAGATTCCAGTTTCGATTAGTGCTAG	8.72
CACGTTGCTCAAGGGCTTGAGTGCTAG	-0.629
GACGGTATTCTTTTCCTGACGTGCTAG	0.629
TCAAGTTTACCCATCTCACTGTGCTAG	0.559
TTAGAATTCAGTTTCGATTAGTGCTAG	9.34
TTAGGTTTCGGGTATCGGGTAGTGCTA	11.1
GACGGTTCCCGTTTCCTGACGTGCTAG	0.42
TTAGAACTGAGTACCGATTAGTGCTAG	-0.026
GCCGGACTGGGGTTTCGGGACGTGCTA	1.94

Study 2
Target: RING finger protein unkempt homolog, zinc fingers 1-6, SBP tag (UNK, Homo sapiens, UniProt Q9C0B0, residues 30-357)
Sequence of UniProt Q9C0B0 (30-357, looked up): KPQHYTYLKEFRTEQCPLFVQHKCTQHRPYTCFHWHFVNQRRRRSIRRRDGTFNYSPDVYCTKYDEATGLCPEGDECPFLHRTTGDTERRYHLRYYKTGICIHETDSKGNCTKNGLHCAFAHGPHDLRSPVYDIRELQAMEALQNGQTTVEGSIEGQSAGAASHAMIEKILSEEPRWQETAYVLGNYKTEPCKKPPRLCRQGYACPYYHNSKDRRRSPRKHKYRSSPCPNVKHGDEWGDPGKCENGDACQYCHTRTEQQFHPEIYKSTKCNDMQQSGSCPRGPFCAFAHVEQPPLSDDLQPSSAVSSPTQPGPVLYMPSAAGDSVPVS
Technique: RNA Bind-n-Seq
Molecule type: RNA
Matrix: in vitro
Concentration: 100 nM
Notes: RNA with constant flanks, ends assumed
Reference: input RNA pool
Direction: higher = stronger binding
Strand	bound/input enrichment [ratio]
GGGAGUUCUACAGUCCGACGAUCCUUUUUUUUUUGCACAUGACAGUGUUUGUAUUGAGGACCUUCCAAGGAAGAGGGAUGCUGCCGCAGUGGUGCCUGGGUGCCUGGCCUCCAGUGUCCCACCUCCUUCACCACCCCACUUGGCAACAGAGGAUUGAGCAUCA	0.466
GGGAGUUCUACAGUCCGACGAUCGGGACGUUUUGAUGUAAAAAUUGAAGUUAAGAGCUGAUCACAAGCACAAAUCUUUCCCACCCGCCAUUUAAUAAGUUAAAAAAAGAUACAAAAACAAAAACCUACCCGUCUUGAACAAACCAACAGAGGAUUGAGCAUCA	0.531
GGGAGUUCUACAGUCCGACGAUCCUACUAUAAACAACUCAGGGCAGUAUUCUCGAUAUCCUUACAGUAACCUAAAUCAGGGAUCCGUUAACAAUACAGGGAUGAAUCAAAAUUCCGGCCUUACAAAUAAUACUCCAAUGAAUCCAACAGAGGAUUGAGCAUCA	0.531
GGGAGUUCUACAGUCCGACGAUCUAUUGUAUGCCGAGAAAAAUUUUCAUUGACUCCCAUUGUGGAAUUCCCCCGCAAUUUAUUCCGACUUAAUUUUUUAAAUUCAAGCUUACUGUAUCCGUCAUUUUCCGCCCAUAAUUAAAACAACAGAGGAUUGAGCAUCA	1.49
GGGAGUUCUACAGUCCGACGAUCUGCAUUAUUUGACCAGAGUUGAAGUGACAGAAUUUGAAGAUAUUAAAUCAGGUUACAGAACCGAUUUUUAUUUUGAUGAAAAUCCUUACUUUGAAAAUAAAGUUCUCUCCAAAGAAUUUCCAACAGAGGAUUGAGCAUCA	0.196

Study 3
Target: RNA binding protein fox-1 homolog 2, RRM domain, GST-SBP tag (RBFOX2, Homo sapiens, UniProt O43251-10, residues 100-194)
Technique: RNA Bind-n-Seq
Molecule type: RNA
Matrix: in vitro
Concentration: 365 nM
Notes: natural RNA segment, single round, ends assumed
Reference: no-protein control
Direction: higher = stronger binding
Residues (chain): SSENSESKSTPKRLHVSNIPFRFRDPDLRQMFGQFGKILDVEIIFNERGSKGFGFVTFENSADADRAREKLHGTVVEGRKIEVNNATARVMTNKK
Strand	RBNS enrichment (R)
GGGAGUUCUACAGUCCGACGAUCCAUUGUUAAUAUCACGGGCGUAACACUUUGAACGAUAUAGAGAUGCACAAACAGUUGAACUUAGAAGUAGCAGUAUUGGCUUUAUGUAAUAAAGGAAGCAUUUUUGACUUUGGAAUUCUCGGGUGCCAA	0.563
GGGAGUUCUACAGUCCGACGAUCGUGUAGUAUACCUGUACAUACUUGUUUCAGGCAGCCUUUCUUUAAUGUUUUCAGUUGGUUUGUAUUCUGUAGCUCAGUAGCUGCUAAUAAAGUUAAAGAUCCUGUGUCCUUGGAAUUCUCGGGUGCCAA	0.354
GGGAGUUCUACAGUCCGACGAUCUUCCAGAAUGCAUUGCACAUCUUUUUAUGAAAUCUAGACUAUGAAAAGGUGAUAAACAUGAAGUAACUGACCCAGAGUUGGUUUAUCUUUGAGUAAACCUUUUUAGUUUUUGGAAUUCUCGGGUGCCAA	1.99
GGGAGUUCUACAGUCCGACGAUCAGAGUUAAUGGCAACCAAUAAUGGUGGCCUGUAGCUGCUAAGAGCUUCACGCAGGUUUGGCCUGGGCUUUCACUGUUGGUGAAUUUAGAGUGUCCUUUUAGGUGGGGCGGUGGAAUUCUCGGGUGCCAA	0.392
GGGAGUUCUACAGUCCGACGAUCAGGGAAACCAAGCUUGGGCCUUGCAGUGGAAAUGGAUCCGAGGGCCCAGGGGACCCUGGUGGAUUUAGGGACUGUCCCCUCCCAUACUCCAAUAGAGGCCUAUCCUGACUUGGAAUUCUCGGGUGCCAA	0.906
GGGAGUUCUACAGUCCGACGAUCUUUUUUCCUUUCUUUGUGUGUAGUGCAGCAACAGUUUGGUCUGCAUUUGUUAGAAGUUUAACUCCUAACAACCCAAAGACCUAUUUAACAAUUGGUGCAUAAAUGAAAGUUGGAAUUCUCGGGUGCCAA	0.422
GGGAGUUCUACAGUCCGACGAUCUAAGUUAUUUAAUGUUAAUAUACAUAGCUAGACUUAAGGUUUUUCAGAAAGAUGUCCAUAAUAAAUAUUAAAAACAAUGGUAUUUUUUAAAAAACUGCCUUAGGGUUUUAUGGAAUUCUCGGGUGCCAA	0.499
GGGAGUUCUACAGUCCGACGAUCUUUCUCCCAACUUAUCCAAGGAUCUCCAGCUCUAACAAAAUGGUUUAUUUUUAUUUAAAUGUCAAUAGUUGUUUUUUAAAAUCCAAAUCAGAGGUGCAGGCCACCAGUUAUGGAAUUCUCGGGUGCCAA	0.389
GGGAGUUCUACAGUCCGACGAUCCUGCAUGACCUUGGGCAAACCCUUGCCCUUUCAAGCCAUCAGCUCCUGCCUCUCUGCCAUGAGGGCUUUGGAUCAGAUUCCUCUUCUCGCCAGGAUGAGGACACGCACUGUGGAAUUCUCGGGUGCCAA	0.816
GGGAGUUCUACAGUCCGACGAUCCUCCUGCCGCUGCGAGGCUGAACUCUUUGGUCCUGCCUCCCGUUCUCAAUACACUCUGUCUCAAAUCGUCUUGCUUCUUUCUUCUGCGCUGUUGCUGCCACGGGCUGGGGUGGAAUUCUCGGGUGCCAA	0.763
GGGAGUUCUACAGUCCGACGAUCUUUUAUCUUGUGGUUAGGGCUAGAAGUAAUGCUUCUAUUUGGGUUUUUACGCUAGAAGCUAGGCGGAAGUGAGUGGGCGGGGAUAUGCAAAUAACUAUCUCACAUAGCGCUGGAAUUCUCGGGUGCCAA	0.585
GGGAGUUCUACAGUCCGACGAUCCAAAUGGUGCUGCUACUGGAUCAGAUUGUGAACGGUUAACUCUGCCCUGAAGUGGGGGUGCGGGAAUGGGGAGGCUUCCCCUUUAGUGACUCAUGUCCCAGGUCUAAGAAUGGAAUUCUCGGGUGCCAA	0.605

Study 4
Target: Prothrombin, mature alpha-thrombin (F2, Homo sapiens, UniProt P00734)
Technique: aptamer microarray, sandwich
Molecule type: DNA with 2'F-ANA
Matrix: in vitro
Concentration: 200 nM
Notes: whole 15-mer aptamer, many near background
Added: Cy3 exosite-II aptamer, 400 nM
Direction: higher = stronger binding
Strand: GGTTGGTGTGGTTGG
Modification	mean fluorescence intensity [a.u.]
2'F-ANA at 1 4 5 8 9 10 12 13 14	47.3
2'F-ANA at 1 2 4 8 9 11 12 13	170
2'F-ANA at 4 9 12 13 14 15	95.4
2'F-ANA at 3 4	858
2'F-ANA at 1 5 7 8 9 12	128
2'F-ANA at 1 3 5 7 9 10 11 12 13 14	49.5
2'F-ANA at 1 2 4 5 7 9 10 14	45.7
2'F-ANA at 1 5 8 9 10 13 14	47.7
2'F-ANA at 1 7 8 12 13 15	414
2'F-ANA at 1 6 7 8 10 11 13 14	50.4
2'F-ANA at 1 5 6 9 12 14 15	49.9
2'F-ANA at 1 3 6 8 9 13 14	79.8
2'F-ANA at 1 2 3 4 5 6 9 11 12 13 15	60.9
2'F-ANA at 2 4 11 12	491
2'F-ANA at 2 4 6 7 8 11 13	180
2'F-ANA at 4 5 7 8 9 10 13 14	48.7
2'F-ANA at 4 5 6 7 8 9 10 11 14 15	46.9
2'F-ANA at 2 3 6 8 11 15	626

Excerpt of the above (study 1):
Strand	fitted relative affinity [z-score]
CCCTGAGGAATCCTGCAGCCGTGCTAG	-0.366
GACTATCTCAGTTTCGAGACGTGCTAG	4.16
GACGATTTGGGGTTTCGAGACGTGCTA	2.41
TTAGAACTGAGTATCGGTTAGTGCTAG	4.14
TCAGATTCCAGTTTCGATTAGTGCTAG	8.72
